Published values from different studies.
A part holds a random share of what one study measured. Positions count from the first letter of the parent shown.

Set 1 — technique: DHFR PCA, deep sequencing; matrix: yeast; together with: (+)-ABA 710 µM; relative to: wild-type fitted maximum; reading: higher = stronger binding
Target: ABI1, truncated, D143A, DHFR fusion (Arabidopsis thaliana)
Setting: methotrexate growth selection, single substitutions
Parent: PYL1, truncated, DHFR fusion (Arabidopsis thaliana); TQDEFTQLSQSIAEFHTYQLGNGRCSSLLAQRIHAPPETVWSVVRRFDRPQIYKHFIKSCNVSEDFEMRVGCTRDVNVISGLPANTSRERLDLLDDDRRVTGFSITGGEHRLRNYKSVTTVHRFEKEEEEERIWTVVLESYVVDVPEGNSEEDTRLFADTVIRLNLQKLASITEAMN
Substitution	relative binding score
L20Q	103%
T73S	98.9%
F66M	96.2%
F157S	3.53%
G23H	101%
E130D	108%
P83S	85.8%
S26P	40.2%
F124L	112%
F47W	92.6%
Q10E	109%
V143A	88.2%
Q7S	103%
S80F	74.1%
T173I	96.8%

Set 2 — technique: protein-binding microarray; molecule type: double-stranded DNA, one strand shown; matrix: in vitro; tested at: 2200 nM top; setting: 60-bp whole probe; together with: salmon DNA 0.4 mg/ml; relative to: random background probes; reading: higher = stronger binding; constant ends, left off below: GCCTAGCAC … GTCTTGATTCGCTTGACGCTGCTG
Target: Interferon regulatory factor 7, full length, phosphomimetic (IRF7, Homo sapiens, UniProt Q92985, residues 1-503, S471D/S472D/S475D/S476D/S477D/S483D/S484D/S487D)
Chain of UniProt Q92985 (whole entry, unmodified, looked up): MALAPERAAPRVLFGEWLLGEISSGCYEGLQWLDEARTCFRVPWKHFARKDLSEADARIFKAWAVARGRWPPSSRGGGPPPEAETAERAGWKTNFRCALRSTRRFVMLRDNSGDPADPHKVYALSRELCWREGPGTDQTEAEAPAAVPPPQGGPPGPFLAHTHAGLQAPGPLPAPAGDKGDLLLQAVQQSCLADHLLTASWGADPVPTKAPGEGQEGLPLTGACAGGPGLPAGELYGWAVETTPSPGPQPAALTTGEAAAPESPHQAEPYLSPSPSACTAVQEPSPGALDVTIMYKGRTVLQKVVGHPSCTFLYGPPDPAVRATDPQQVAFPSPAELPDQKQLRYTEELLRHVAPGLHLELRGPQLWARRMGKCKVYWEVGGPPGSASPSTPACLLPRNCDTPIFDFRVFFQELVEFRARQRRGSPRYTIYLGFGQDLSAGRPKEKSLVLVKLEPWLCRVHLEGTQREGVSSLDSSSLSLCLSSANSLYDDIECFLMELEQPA
Strand	fitted relative affinity
TCAGATTTCAATTAGAAACTGTGCTAG	0.178 z-score
TTTTTTTCCTAATTGAACCCGTGCTAG	1.65 z-score
CCTCCTCCCTGTTTCCATCTGTGCTAG	2.17 z-score
GACGGTCTCCTACTGCTGCCGTGCTAG	0.193 z-score
TTAGGTTTCGGTCTCGCTTAGTGCTAG	6.61 z-score
TCATATTAGAGTCTCAAACTGTGCTAG	0.231 z-score
GACGATTTCGTGTTTCGAGACGTGCTA	4.12 z-score
GACGGTATCGACACTGGGAACGTGCTA	-0.22 z-score
TCATGTATATACTATATGACTGTGCTA	0.681 z-score
AAGACTTTGCTCTGTGCGTAGGTGCTA	-0.27 z-score
TTAGCTCTCAGACTGGATTAGTGCTAG	-0.21 z-score
TCATCTCTGGACTGTGTGACTGTGCTA	1.01 z-score
ATAGAACTGAGTTTCGATTAGTGCTAG	3.9 z-score
TTAGATTTCAGTCTCGGTTAGTGCTAG	1.21 z-score
TCAACATTGTGCAATCTTACTGTGCTA	0.393 z-score
TTAGGTATCGAATATCGGTTAGTGCTA	0.364 z-score
TCAGCTTCCTCTTTTTTACTGTGCTAG	1.92 z-score
TCAATTTTTTTTATCAAACTGTGCTAG	0.138 z-score
TTAGGTATGCTTTTCCTTTAGTGCTAG	1.7 z-score
GACGGTATCGACACTAGGGACGTGCTA	-0.169 z-score
CTAATTTTGAGACTCATGGGGTGCTAG	-0.169 z-score
GACGGTTTCGGGACTGAGGACGTGCTA	3.33 z-score
TTTTTTTTATCAATCATTTTGTGCTAG	0.967 z-score
GACGGACTGTGTATCGGGACGTGCTAG	-0.353 z-score
GTCGGTTCCCTTTTCCTGACGTGCTAG	3.66 z-score

Set 3 — technique: RNA Bind-n-Seq; molecule type: RNA; matrix: in vitro; tested at: 365 nM; relative to: no-protein control; reading: higher = stronger binding
Target: RNA binding protein fox-1 homolog 2, RRM domain, GST-SBP tag (RBFOX2, Homo sapiens, UniProt O43251-10, residues 100-194)
Setting: natural RNA segment, single round, ends assumed
Constant ends, left off below: GGGAGUUCUACAGUCCGACGAUC … UGGAAUUCUCGGGUGCCAA
Target sequence (chain): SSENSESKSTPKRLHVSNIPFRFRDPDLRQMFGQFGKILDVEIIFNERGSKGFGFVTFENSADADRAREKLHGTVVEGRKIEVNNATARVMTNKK
Strand	RBNS enrichment (R)
GUGGGUUCAGAGGGCAAUUUCUCUUUUAUGUGUACAUAUGCUAAAUAAACAUAAUUUAAAAAACAUGCGUGUCUGGAACCUAUGUUGAUUGAGUGGCUGGUAUUGAGAGC	1.42
GAUAAACAGUUUAGCCCAUCUCUCCAGAGAGCAAACAUAGGAAUAUGACUCAGGAGCCUCCUAGGGCUUAUCAUCAGCCCUCACACCCGCUUCCCCCUCCAACCCACAGC	0.305
GACAGUCCCUGGAUCCUACACAGCUAAUCCAAGCCAAUAAAGGGCUCUCACAAGUGGUUGUUCCUCAGUUCUGUUGUGCAGUGACUCUUGAGAUGCACCAUUCUCUACUG	0.414
AGAAAGAUGGCAUAUCAGAUAUGCAAGUCUGUGAAUGUUUUGCACAGUAAUAAGUUGACUCACACAGACUUAAAGCCUGAAAACAUCUUAUUUGUGCAGUCUGACUACAC	0.387
GUCAGCCCUGCCUCACCAUGCCUGCAGGAGGCUGUCCAGGGAGCAGGUCUGUGUGCCCAUCAGCAGGUUCCCAUGGCUGUCACUGCCCACUCAUUUCCACAGUUAGAUAC	0.752
UAAUGUGUUCCCUUUCCCACCCCUUGCCUGACCCUCAGGGAGUCAGCCUGCUUCCAUCCAUGGGUGGGAAGACUUCAGCACAAAGGAAAGACUAAUUCUUGUCAGGCAUU	0.334
UGGAGUGGACUUCAGUGGGCAUUCGUGCUAAGUCACCCUCAUCGGUAAAAUACUGCAAAGAACUAACAACAACAGGUUAGUGUUGGCUCCUGAACAGUAAACCGCUCUGA	0.447
GUUGCUGUGUAGUGUUAAUUUAUUCUGAGGAUGUGUGGCAAGCGCCUGGCACUGGGUAAAUGUAUAGUUAAAGUAGUAGCCACAACGUUGUUCUUAUUCCUAGGUCAGGG	0.863
UUAUUUGGGUCCCAGAUGGAGCCCACCGCGGACUUGCCUUGCAUUCCUCAGGCCAGGCAAGCCUGAGCCAGAAAGGGCGCACGGUGCCAGCCCCUCUCGGGGACUCUGGG	0.282
AGCACUGUGUGACUUUGUGAAGGACACUGCCUUGGAAAUGUUGACUGACGUUUAUGCCUGGUGAUAGCAUGUCCCGAGAAGCAUGGACAUGGAGUUUUGUUUUAAUAAAC	17.2
AUAAAUGAUAAAAGUAAAUGUAAUGGAAUCUUUUAAUUAGGCUAAGAUAUGCUAUUUCAUAACUUAUGUAGAAUGAUUUUUAUCUAUAUACUUUGUCCAUAAAAUUAUAA	0.664
GAAGAUAAUCACAGACGUUAGUUAGAGUGUAUUUAUUUUUUUAAGUUACAAUAAAGUGCUCAGUCCUAGUCUUUUCUUGUGUUCUAAUGUUAAUUCCAAACUUUCUCUCA	0.523

Set 4 — target: CCNB2, cyclin fold, Cln2 fusion (human); technique: yeast growth competition, sequencing; matrix: yeast; setting: weak parent motif; relative to: not given; reading: higher = stronger binding
Parent: HIRA docking peptide (human); SLSKRKLELEVET
Substitution	normalised enrichment score
ALSKRKLELEVET [S1A]	-0.0463
SLSKRKLELEVEA [T13A]	-0.0941
SLSKRKLELEVAT [E12A]	-0.0878
SLSKRKLELAVET [E10A]	-0.437
SLSKKKLEFEVET [R5K L9F]	-0.251
SLSKRKLEFEVET [L9F]	-0.0649
SLAKRKLELEVET [S3A]	-0.308
SLSKAKAELEVET [R5A L7A]	-0.239
SLSKRKLALEVET [E8A]	0.365
SLSKRALELEVET [K6A]	-0.189

Set 5 — target: CRIPT, C-terminal peptide; technique: DHFR complementation, deep sequencing; matrix: yeast; relative to: wild type; reading: higher = weaker binding
Setting: single substitutions, model-inferred values
Parent: ERBIN, PDZ domain 1 (human); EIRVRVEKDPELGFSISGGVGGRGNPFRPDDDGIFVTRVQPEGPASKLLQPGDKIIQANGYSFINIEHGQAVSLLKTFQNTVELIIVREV; partner TKNYKQTSV
Substitution	binding free energy change [kcal/mol]
S46L	0.199
K76T	0.364
R23A	-0.484
S62L	0.161
V87Y	-0.00801
G21D	-1.15
I55R	0.559
Q57T	-0.064
V6R	1.04
E11P	0.447
E7Y	0.252
V90N	-0.071
L49W	0.483

Further values, each from its own experiment
Molecule	target	test	test system	setting	how to read	measurement	value
PhoQ, residues 284 288 289 292 302 303 TNASYF	PhoP, residues 12 14 15 18 19 HLGGL (Escherichia coli, UniProt P23836)	Sort-seq, measured: YFP reporter	E. coli	PhoQ-PhoP variant library, together with: 10 µM Mg2+	relative to: high Mg2+ state, higher = stronger signaling	fold induction	2.21

A few entries again (set 5):
Substitution	binding free energy change [kcal/mol]
V87Y	-0.00801
G21D	-1.15
I55R	0.559
Q57T	-0.064
V6R	1.04
E11P	0.447
E7Y	0.252
V90N	-0.071
